# Experimental data from different studies.
# Each line is one published result; not all experiments were run side by side.
# Route: oral
Structure (SMILES),system,conditions,scale,quantity,value
Cn1nc(NS(C)(=O)=O)c2c(Cl)ccc(-n3c([C@H](Cc4cc(F)cc(F)c4)NC(=O)Cn4nc(C(F)F)c5c4C(F)(F)[C@@H]4C[C@H]54)nc4nc(OCCC(F)(F)F)ccc4c3=O)c21,human,"dose not given, single dose tablet",relative to: powder in bottle,AUC(0-inf) reduction,45%
CC(=O)c1c(C)c2cnc(Nc3ccc(C4CCN(CCS(C)(=O)=O)CC4)cn3)nc2n(C2CCCC2)c1=O,"human, dose-escalation trial, plasma","150 mg twice daily, day 21, multiple doses",,AUC(0-inf),6140 ng·h/mL
CNC(=O)n1ccc2cc(Oc3ccnc(NC(=O)c4ccc(C5CCN(CCO)CC5)cc4)c3)c(OCCOC)cc21,"healthy human, plasma","35 mg, together with: high-fat meal",relative to: fasted,AUC(0-inf) reduction,~23%
O=c1ccc2ncc(=O)n3c2n1C[C@H]3CN1CCC(NCc2cc3c(cn2)OCCC3)CC1,"healthy human volunteers, plasma","1500 mg, arithmetic mean, alone",,AUC(0-inf),18400 ng·h/mL
Cc1ncc2n1-c1ccc(Cl)cc1C(c1ccccc1F)=NC2,"human, plasma","dose not given, single dose, geometric LS mean, together with: rimegepant",,AUC(0-inf),51.5 ng·h/mL
Cc1ncc2n1-c1ccc(Cl)cc1C(c1ccccc1F)=NC2,human,"dose not given, together with: omaveloxolone",relative to: substrate alone,AUC(0-inf) decrease,45%
OCc1ncc2n1-c1ccc(Cl)cc1C(c1ccccc1F)=NC2,"human, plasma","7.5 mg of midazolam, day 26, arithmetic mean, no amenamevir",,AUC(0-inf),44.1 ng·h/mL
COc1ccc(C[C@@H]2NC(=O)[C@H]([C@@H](C)O)NC(=O)[C@@H]3[C@@H]4CCN3C(=O)[C@@H]3Cc5cn(c6ccc(F)cc56)CCCCCCN(Cc5ccc(cc5)CCNC(=O)[C@]5(C)CCCN5C2=O)C(=O)CCC(=O)N[C@@H](C)C(=O)N[C@H](CNC(=O)CCCCC[N+](C)(C)C)C(=O)N[C@@H](Cc2cccc(c2)CNC(=O)CO4)C(=O)N3)cc1,"human, plasma","40 mg single, fasted (high-fat comparison), geometric mean, together with: sodium caprate 720 mg",,AUC(0-inf),0.758 µM·h

# Repeated from above:
Structure (SMILES),system,conditions,scale,quantity,value
Cc1ncc2n1-c1ccc(Cl)cc1C(c1ccccc1F)=NC2,"human, plasma","dose not given, single dose, geometric LS mean, together with: rimegepant",,AUC(0-inf),51.5 ng·h/mL
